# Measured values gathered from unrelated publications.
# ± marks the error that the study gave.
# Substance-P receptor: Substance-P receptor (Cavia porcellus, UniProt P30547)
# UniProt P30547, sequence (whole entry, looked up): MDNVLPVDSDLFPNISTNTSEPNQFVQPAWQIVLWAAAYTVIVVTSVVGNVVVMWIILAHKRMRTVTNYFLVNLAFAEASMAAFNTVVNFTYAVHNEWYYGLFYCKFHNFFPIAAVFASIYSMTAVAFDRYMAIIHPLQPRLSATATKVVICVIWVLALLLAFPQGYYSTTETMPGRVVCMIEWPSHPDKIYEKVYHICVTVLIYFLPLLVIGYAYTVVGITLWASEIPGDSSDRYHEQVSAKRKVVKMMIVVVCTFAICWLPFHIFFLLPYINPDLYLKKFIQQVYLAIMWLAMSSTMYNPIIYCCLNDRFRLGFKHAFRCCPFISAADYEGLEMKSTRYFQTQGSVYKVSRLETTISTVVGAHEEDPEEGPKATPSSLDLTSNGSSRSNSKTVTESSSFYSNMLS
# gpmI: 2,3-bisphosphoglycerate-independent phosphoglycerate mutase (gpmI, Mycoplasma pneumoniae, UniProt P75167)
# UniProt P75167, sequence (whole entry, looked up): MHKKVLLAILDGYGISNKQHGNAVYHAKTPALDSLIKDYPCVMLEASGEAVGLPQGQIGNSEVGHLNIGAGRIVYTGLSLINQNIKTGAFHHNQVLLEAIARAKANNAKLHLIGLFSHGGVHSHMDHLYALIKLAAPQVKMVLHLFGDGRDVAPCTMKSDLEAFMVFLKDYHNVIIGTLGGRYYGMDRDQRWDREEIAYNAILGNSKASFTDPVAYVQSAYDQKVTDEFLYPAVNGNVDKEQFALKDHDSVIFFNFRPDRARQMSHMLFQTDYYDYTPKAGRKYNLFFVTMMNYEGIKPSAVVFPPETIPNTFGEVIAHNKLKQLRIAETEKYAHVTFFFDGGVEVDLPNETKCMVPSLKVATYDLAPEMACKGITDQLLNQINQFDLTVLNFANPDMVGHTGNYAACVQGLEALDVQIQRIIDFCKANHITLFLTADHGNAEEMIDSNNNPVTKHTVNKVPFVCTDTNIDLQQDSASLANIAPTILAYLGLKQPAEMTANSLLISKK
# 2,3-bisphosphoglycerate-independent phosphoglycerate mutase: 2,3-bisphosphoglycerate-independent phosphoglycerate mutase (Wuchereria bancrofti, UniProt B1P0R4)
# UniProt P41149, sequence (whole entry, looked up): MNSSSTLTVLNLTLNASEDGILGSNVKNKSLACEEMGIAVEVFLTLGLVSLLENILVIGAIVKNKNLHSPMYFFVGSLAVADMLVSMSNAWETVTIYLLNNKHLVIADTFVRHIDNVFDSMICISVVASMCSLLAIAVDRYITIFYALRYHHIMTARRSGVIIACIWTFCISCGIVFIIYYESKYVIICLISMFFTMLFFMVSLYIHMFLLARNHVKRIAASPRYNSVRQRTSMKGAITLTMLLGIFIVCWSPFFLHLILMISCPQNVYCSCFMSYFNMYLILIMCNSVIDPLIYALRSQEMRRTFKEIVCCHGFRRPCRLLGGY
# UniProt P07947, sequence (whole entry, looked up): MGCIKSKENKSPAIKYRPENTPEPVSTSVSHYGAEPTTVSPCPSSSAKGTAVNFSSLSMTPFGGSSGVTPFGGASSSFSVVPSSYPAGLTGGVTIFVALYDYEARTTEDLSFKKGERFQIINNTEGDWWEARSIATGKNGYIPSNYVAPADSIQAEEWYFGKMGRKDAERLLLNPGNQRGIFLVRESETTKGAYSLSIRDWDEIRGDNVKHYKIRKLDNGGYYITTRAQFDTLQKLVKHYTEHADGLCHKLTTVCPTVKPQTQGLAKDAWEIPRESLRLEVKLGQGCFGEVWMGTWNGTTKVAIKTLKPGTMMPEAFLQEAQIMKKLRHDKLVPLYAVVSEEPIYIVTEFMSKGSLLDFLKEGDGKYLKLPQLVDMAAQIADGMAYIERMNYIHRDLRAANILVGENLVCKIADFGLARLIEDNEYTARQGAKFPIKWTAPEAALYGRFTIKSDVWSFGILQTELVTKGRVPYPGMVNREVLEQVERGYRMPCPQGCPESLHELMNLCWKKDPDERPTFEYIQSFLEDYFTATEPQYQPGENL
# UniProt P33033, sequence (whole entry, looked up): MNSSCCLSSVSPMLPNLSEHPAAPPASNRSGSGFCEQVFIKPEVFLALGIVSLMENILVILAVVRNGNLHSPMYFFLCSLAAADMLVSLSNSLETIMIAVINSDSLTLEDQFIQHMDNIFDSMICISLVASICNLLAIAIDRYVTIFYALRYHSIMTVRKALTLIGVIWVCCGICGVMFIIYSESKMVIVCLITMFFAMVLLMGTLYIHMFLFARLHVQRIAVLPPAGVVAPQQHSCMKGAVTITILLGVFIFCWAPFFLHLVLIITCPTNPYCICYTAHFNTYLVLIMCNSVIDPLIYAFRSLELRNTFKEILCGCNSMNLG
# UniProt P02750, sequence (whole entry, looked up): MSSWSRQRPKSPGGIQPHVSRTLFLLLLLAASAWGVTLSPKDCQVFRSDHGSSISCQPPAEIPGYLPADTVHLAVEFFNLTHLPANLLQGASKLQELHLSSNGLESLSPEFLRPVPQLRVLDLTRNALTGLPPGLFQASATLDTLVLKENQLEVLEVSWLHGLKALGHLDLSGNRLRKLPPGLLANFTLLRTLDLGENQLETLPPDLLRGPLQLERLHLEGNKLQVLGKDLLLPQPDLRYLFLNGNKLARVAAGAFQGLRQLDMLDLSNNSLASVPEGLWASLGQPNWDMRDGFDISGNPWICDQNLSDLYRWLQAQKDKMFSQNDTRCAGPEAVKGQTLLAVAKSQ
SMILES,target,assay,test system,conditions,endpoint,result
NCCCC[C@H](NC(=O)[C@H](CC(N)=O)NC(=O)[C@H](CCCCNC(=O)[C@H](Cc1ccc(B(O)O)cc1)NC(=O)[C@H](Cc1ccc(O)cc1)NC(=O)[C@@H](N)Cc1ccc(B(O)O)cc1)NC(=O)[C@H](Cc1ccc(B(O)O)cc1)NC(=O)[C@H](Cc1ccc(O)cc1)NC(=O)[C@@H](N)Cc1ccc(B(O)O)cc1)C(=O)N[C@@H](CO)C(=O)N[C@@H](Cc1ccc(O)cc1)C(N)=O,HIV-1 TAR RNA,"binding, dot blot",,,Kd,5200 ± 1500 nM
CCCC[C@H](NC(=O)[C@H](Cc1ccccc1)NC(=O)CNC(=O)[C@@H](C)NC(=O)[C@@H](N)Cc1ccc(O)cc1)C(=O)N[C@@H](CO[C@@H]1O[C@H](CO)[C@@H](O)[C@H](O)[C@H]1O)C(=O)N[C@@H](CC(C)C)C(=O)N[C@@H](Cc1c[nH]c2ccccc12)C(=O)NCc1cc(C(F)(F)F)cc(C(F)(F)F)c1,Substance-P receptor,"tissue contraction, antagonist",,,Kb,18 nM
CC(C)[C@@H]1NC(=O)[C@H](CCC(N)=O)NC(=O)[C@@H](Cc2ccc(O)cc2)NC(=O)CSC[C@@H](C(N)=O)NC(=O)[C@H](CC(=O)O)NC(=O)[C@H](CCC(=O)O)NC(=O)[C@H](Cc2c[nH]c3ccccc23)NC(=O)[C@@H]2CCCN2C(=O)[C@H](CO)NC(=O)[C@H](C)NC(=O)[C@H](Cc2c[nH]c3ccccc23)NC(=O)[C@H](Cc2c[nH]c3ccccc23)NC(=O)[C@H](C(C)C)NC(=O)[C@H]([C@@H](C)O)NC1=O,gpmI,biochemical,,,AC50,162 nM
CC(=O)N[C@@H](CCCNC(=N)N)C(=O)N[C@@H](CCCNC(=N)N)C(=O)N[C@H](Cc1ccc(I)cc1)C(=O)N[C@@H](C(N)=O)[C@H](c1ccccc1)c1c[nH]c2ccccc12,"Melanocortin receptor 3 (Mus musculus, UniProt P33033)","cAMP, agonist, AlphaScreen",,,EC50,5700 nM
Cl.Cl.Cl.Cl.Cl.Cl.Cl.Cl.Cl.Cl.Cl.Cl.NC[C@@H]1O[C@H](O[C@H]2[C@@H](O)[C@H](O[C@@H]3[C@@H](O)[C@H](N)C[C@H](N)[C@H]3O[C@H]3O[C@H](CN)[C@@H](O)[C@H](O)[C@H]3N)O[C@@H]2Cn2cc(COCCCCCCCCCCCCOCc3cn(C[C@H]4O[C@@H](O[C@@H]5[C@@H](O)[C@H](N)C[C@H](N)[C@H]5O[C@H]5O[C@H](CN)[C@@H](O)[C@H](O)[C@H]5N)[C@H](O)[C@@H]4O[C@H]4O[C@@H](CN)[C@@H](O)[C@H](O)[C@H]4N)nn3)nn2)[C@H](N)[C@@H](O)[C@@H]1O,HIV-1 TAR RNA,"RNA binding, ethidium bromide displacement",,"pH 6.8, TAR RNA 200 nM per strand, added: ethidium bromide 5 µM",binding constant,2.53e+07 M⁻¹
CC[C@H](C)[C@H](NC(=O)[C@H](CCCNC(=N)N)NC(=O)[C@H](Cc1c[nH]cn1)NC(=O)[C@H](CCCCN)NC(=O)[C@H](C)NC(=O)[C@H](CO)NC(=O)[C@H](Cc1ccc(O)cc1)NC(=O)[C@H](CO)NC(=O)[C@H](CCC(=O)O)NC(=O)CNC(=O)CNC(=O)CCC(=O)Nc1cccc2c1CN(C1CCC(=O)NC1=O)C2=O)C(=O)N[C@@H](CCSC)C(=O)N[C@@H](CC(C)C)C(=O)N[C@H](C(=O)O)[C@@H](C)O (stereo partly shown),"Leucine-rich alpha-2-glycoprotein (LRG1, Homo sapiens, UniProt P02750)","degrader, Western blot",HK-2,12 h,DC50,8380 nM
CNC(=O)C1CCN(c2ccccc2NC(=O)c2ccc(-c3cc(O)ccc3C)c(C)n2)CC1,"YES1 (Homo sapiens, UniProt P07947)","cell-free assay, TR-FRET",,,Ki,0.2 nM
COc1ccc(C[C@H]2C(=O)N(C)[C@@H](Cc3ccc(O)cc3)C(=O)N(C)[C@@H](Cc3ccccc3)C(=O)N[C@@H](CC(N)=O)C(=O)NCC(=O)N(C)[C@@H](Cc3ccc(O)cc3)C(=O)N[C@@H](CC(N)=O)C(=O)N[C@@H](Cc3c[nH]cn3)C(=O)N[C@@H](Cc3ccc(O)cc3)C(=O)N[C@@H](Cc3c[nH]c4ccccc34)C(=O)N[C@H](C(N)=O)CSCC(=O)N[C@H](Cc3ccc(O)cc3)C(=O)N[C@@H](CC(=O)O)C(=O)N[C@@H](CO)C(=O)N[C@@H](Cc3ccc(O)cc3)C(=O)N[C@@H](C)C(=O)N2C)cc1,"2,3-bisphosphoglycerate-independent phosphoglycerate mutase",biochemical,,,AC50,81.3 nM
Cl.Cl.Cl.Cl.Cl.Cl.Cl.Cl.Cl.Cl.Cl.Cl.NC[C@@H]1O[C@H](O[C@H]2[C@@H](O)[C@H](O[C@@H]3[C@@H](O)[C@H](N)C[C@H](N)[C@H]3O[C@H]3O[C@H](CN)[C@@H](O)[C@H](O)[C@H]3N)O[C@@H]2Cn2cc(CCCc3cn(C[C@H]4O[C@@H](O[C@@H]5[C@@H](O)[C@H](N)C[C@H](N)[C@H]5O[C@H]5O[C@H](CN)[C@@H](O)[C@H](O)[C@H]5N)[C@H](O)[C@@H]4O[C@H]4O[C@@H](CN)[C@@H](O)[C@H](O)[C@H]4N)nn3)nn2)[C@H](N)[C@@H](O)[C@@H]1O,HIV-1 TAR RNA,"RNA binding, ethidium bromide displacement",,"pH 6.8, TAR RNA 200 nM per strand, added: ethidium bromide 5 µM",binding constant,7.08e+07 M⁻¹
C[C@@H](O)[C@@H]1NC(=O)[C@H](CC(=O)O)NC(=O)[C@@H]2CCCN2C(=O)[C@H](Cc2ccc(O)cc2)NC(=O)CSC[C@@H](C(N)=O)NC(=O)[C@H](Cc2c[nH]cn2)NC(=O)[C@H](Cc2c[nH]c3ccccc23)NC(=O)[C@H](CCC(=O)O)NC(=O)[C@H](CC(=O)O)NC(=O)[C@H](Cc2ccc(O)cc2)N(C)C(=O)[C@H](Cc2ccc(O)cc2)NC(=O)[C@H](Cc2c[nH]c3ccccc23)NC(=O)[C@H](Cc2c[nH]c3ccccc23)NC(=O)[C@H](CC(N)=O)NC1=O,"2,3-bisphosphoglycerate-independent phosphoglycerate mutase",biochemical,,,AC50,1450 nM
CC(=O)N[C@@H](CCCNC(=N)N)C(=O)N[C@@H](CCCNC(=N)N)C(=O)N[C@@H](C(=O)N1Cc2ccccc2C[C@H]1C(N)=O)[C@@H](c1ccccc1)c1c[nH]c2ccccc12,"Melanocortin receptor 5 (Mus musculus, UniProt P41149)","cAMP, agonist, AlphaScreen",,,EC50,350 nM
CCCC[C@H](NC(=O)[C@H](Cc1ccccc1)NC(=O)CNC(=O)[C@@H](C)NC(=O)[C@@H](N)Cc1ccc(O)cc1)C(=O)N1CCC[C@H]1C(=O)N[C@@H](CO[C@@H]1O[C@H](CO)[C@@H](O)[C@H](O)[C@H]1O)C(=O)N[C@@H](Cc1c[nH]c2ccccc12)C(=O)NCc1cc(C(F)(F)F)cc(C(F)(F)F)c1,Substance-P receptor,"tissue contraction, antagonist",,,Kb,1.8 nM
COc1ccc(C[C@@H]2NC(=O)[C@H](C)NC(=O)[C@H](Cc3ccc(O)cc3)NC(=O)[C@H](CO)NC(=O)[C@H](CC(=O)O)NC(=O)[C@@H](Cc3ccc(O)cc3)NC(=O)CSC[C@@H](C(N)=O)NC(=O)[C@H](Cc3c[nH]c4ccccc34)NC(=O)[C@H](Cc3ccc(O)cc3)NC(=O)[C@H](Cc3c[nH]cn3)NC(=O)[C@H](CC(N)=O)NC(=O)[C@H](Cc3ccc(O)cc3)NC(=O)CNC(=O)[C@H](CC(N)=O)NC(=O)[C@H](Cc3ccccc3)NC(=O)[C@H](Cc3ccc(O)cc3)NC2=O)cc1,gpmI,biochemical,,,AC50,> 10000 nM

# A few entries again:
SMILES,target,assay,test system,conditions,endpoint,result
Cl.Cl.Cl.Cl.Cl.Cl.Cl.Cl.Cl.Cl.Cl.Cl.NC[C@@H]1O[C@H](O[C@H]2[C@@H](O)[C@H](O[C@@H]3[C@@H](O)[C@H](N)C[C@H](N)[C@H]3O[C@H]3O[C@H](CN)[C@@H](O)[C@H](O)[C@H]3N)O[C@@H]2Cn2cc(CCCc3cn(C[C@H]4O[C@@H](O[C@@H]5[C@@H](O)[C@H](N)C[C@H](N)[C@H]5O[C@H]5O[C@H](CN)[C@@H](O)[C@H](O)[C@H]5N)[C@H](O)[C@@H]4O[C@H]4O[C@@H](CN)[C@@H](O)[C@H](O)[C@H]4N)nn3)nn2)[C@H](N)[C@@H](O)[C@@H]1O,HIV-1 TAR RNA,"RNA binding, ethidium bromide displacement",,"pH 6.8, TAR RNA 200 nM per strand, added: ethidium bromide 5 µM",binding constant,7.08e+07 M⁻¹
